Experimental data collected from several papers.
Each line is one published result; not all experiments were run side by side. ± gives the spread as reported.
Organism: Acinetobacter baumannii

Structure (SMILES) | assay | test system | conditions | scale | MIC
CC1=C[C@@]2(C)C(=C(C)[C@H]3[C@@H]4C[C@H](C)C[C@H](C)[C@H]4[C@H]4Oc5ccc(cc5)C[C@@H]5C(=O)NC(=O)[C@H]5C(=O)[C@@H]2[C@@H]43)[C@H]1C | broth microdilution | ATCC BAA-1605 | together with: colistin 0.1 µM | – | 12.5 µM
CCn1cc[n+](CC)[c]1[Au-][Cl] | broth dilution | DSM 30007 | 20 h, 37 °C | – | 3.8 ± 2.4 µM
NCC1OC(OC2C(N)CC(N)C(OC3OC(CO)C(O)C(N)C3O)C2OCCCCCCCCn2cc(CNc3nc(NCc4cn(CCCCCCCCOC5C(OC6OC(CN)C(O)CC6N)C(N)CC(N)C5OC5OC(CO)C(O)C(N)C5O)nn4)nc(NCc4cn(CCCCCCCCOC5C(OC6OC(CN)C(O)CC6N)C(N)CC(N)C5OC5OC(CO)C(O)C(N)C5O)nn4)n3)nn2)C(N)CC1O (stereo not shown) | microbial growth, broth dilution | ATCC17978 | – | – | > 128 µg/mL
CCn1cc(C(=O)NCCNCCO)c(=O)c2cc(OCc3ccc(C(C)(C)C)cc3)c(Cl)cc21 | – | ATCC 19606 | – | ≥80% growth inhibition | < 0.25 µg/mL
CCCCCNS(=O)(=O)c1ccc(-n2nnc(/C(C)=N/NC(=N)N)c2C)cc1 | microbial growth, broth dilution | AB5075 | – | – | > 64 µg/mL
CC(C)C[C@H](NC(=O)[C@H](CC(N)=O)NC(=O)[C@H](CCCNC(=N)N)NC(=O)[C@@H](CC(C)C)NC(=O)[C@H](Cc1ccc2ccccc2c1)NC(=O)[C@H](CC(=O)O)NC(=O)[C@H](CCCCN)NC(=O)[C@@H](CC(C)C)NC(=O)[C@H](CCCNC(=N)N)NC(=O)[C@H](CCC(N)=O)NC(=O)[C@@H](NC(=O)[C@@H](CC(C)C)NC(=O)[C@H](CCCNC(=N)N)NC(=O)[C@H](CCCCN)NC(=O)[C@H](Cc1ccc(C(F)(F)F)cc1)NC(=O)CN)C(C)C)C(=O)N[C@H](C(N)=O)C(C)C | broth microdilution | B2367-12 | – | – | 3.1 µM
CN1CCC(NCCC2(Cc3ccc(Cl)cc3)CCCCC2)CC1 | microbial growth | – | 10 h | – | 100 µM
CC(C)C(O)C(NC(=O)[C@H](Cc1ccc(O)cc1)NC(=O)C(Cc1ccc(O)cc1)[N+](C)(C)C)C(=O)N[C@@H](C)C(=O)O (stereo partly shown) | – | ATCC 19606 | – | – | > 100 µM
CC(C)C[C@@H](NC(=O)[C@@H](CCCCN)NC(=O)[C@@H](CCCCNC(=O)[C@@H](CC(C)C)NC(=O)[C@@H](CCCCN)NC(=O)[C@@H](CCCCNC(=O)[C@@H](CC(C)C)NC(=O)[C@@H](CCCCN)NC(=O)[C@@H](CCCCNC(=O)[C@@H](CC(C)C)NC(=O)[C@H](N)CCCCN)NC(=O)[C@@H](CC(C)C)NC(=O)[C@H](N)CCCCN)NC(=O)[C@@H](CC(C)C)NC(=O)[C@@H](CCCCN)NC(=O)[C@@H](CCCCNC(=O)[C@@H](CC(C)C)NC(=O)[C@H](N)CCCCN)NC(=O)[C@@H](CC(C)C)NC(=O)[C@H](N)CCCCN)NC(=O)[C@@H](CC(C)C)NC(=O)[C@@H](CCCCN)NC(=O)[C@@H](CCCCNC(=O)[C@@H](CC(C)C)NC(=O)[C@@H](CCCCN)NC(=O)[C@@H](CCCCNC(=O)[C@@H](CC(C)C)NC(=O)[C@H](N)CCCCN)NC(=O)[C@@H](CC(C)C)NC(=O)[C@H](N)CCCCN)NC(=O)[C@@H](CC(C)C)NC(=O)[C@@H](CCCCN)NC(=O)[C@@H](CCCCNC(=O)[C@@H](CC(C)C)NC(=O)[C@H](N)CCCCN)NC(=O)[C@@H](CC(C)C)NC(=O)[C@H](N)CCCCN)C(N)=O | broth microdilution | ATCC 19606 | 37 °C | – | 8 µg/mL
COc1ccc2ccc3c(c2c1)C=[N+]1C2CCCCC2[N+]2=Cc4ccc(-c5ccccc5)cc4[O][Au-]21[O]3.F[P-](F)(F)(F)(F)F (stereo not shown) | bacterial growth, broth microdilution | carbapenem-resistant clinical isolate | 24 h | – | > 20 µM

Repeated from above:
Structure (SMILES) | assay | test system | conditions | scale | MIC
CC(C)C(O)C(NC(=O)[C@H](Cc1ccc(O)cc1)NC(=O)C(Cc1ccc(O)cc1)[N+](C)(C)C)C(=O)N[C@@H](C)C(=O)O (stereo partly shown) | – | ATCC 19606 | – | – | > 100 µM
